Results collected from several papers.
Parts stem from different laboratories: compare values within a part only.

Block 1 — technique: aptamer microarray, sandwich; form: DNA with 2'F-ANA; medium: in vitro; tested at: 200 nM; with: Cy3 exosite-II aptamer, 400 nM; reading: higher = stronger binding; measurement: mean fluorescence intensity; oligonucleotide: GGTTGGTGTGGTTGG
Target: Prothrombin, mature alpha-thrombin (F2, Homo sapiens, UniProt P00734)
Notes: whole 15-mer aptamer, many near background
Modification = 2'F-ANA at 1 4 5 6 7 11 12; result = 89.1 a.u.
Modification = 2'F-ANA at 1 3 4 5 6 7 9 10 12 13 14 15; result = 154 a.u.
Modification = 2'F-ANA at 1 3 4 9 10; result = 82.8 a.u.
Modification = 2'F-ANA at 1 10 12; result = 68.7 a.u.
Modification = 2'F-ANA at 1 3 7 9 13 14; result = 84.6 a.u.
Modification = 2'F-ANA at 1 2 3 8 9 10 11 12 14 15; result = 122 a.u.
Modification = 2'F-ANA at 1 2 4 5 7 8 9 11 13 14 15; result = 50.4 a.u.
Modification = 2'F-ANA at 1 3 7 8 10 11 13 14 15; result = 64.1 a.u.
Modification = 2'F-ANA at 1 3 4 6 7 13 15; result = 148 a.u.
Modification = 2'F-ANA at 2 5 8 10 13 15; result = 52.9 a.u.
Modification = 2'F-ANA at 1 2 4 5 6 9 10 11 12 13 14; result = 52.8 a.u.
Modification = 2'F-ANA at 2 4 5 6 8 9 11 12 13 14 15; result = 46 a.u.
Modification = 2'F-ANA at 2 9 11 13 14 15; result = 109 a.u.
Modification = 2'F-ANA at 3 4 5 6 9 11 12 13; result = 108 a.u.
Modification = 2'F-ANA at 1 2 3 6 13 15; result = 153 a.u.
Modification = 2'F-ANA at 1 2 6 7 10 12 13; result = 60.8 a.u.
Modification = 2'F-ANA at 1 2 5 6 8 10 12; result = 49.9 a.u.
Modification = 2'F-ANA at 5 6 7 9 11 15; result = 57.6 a.u.
Modification = 2'F-ANA at 1 4 5 7 8 13; result = 53.8 a.u.
Modification = 2'F-ANA at 1 2 3 4 6 7; result = 172 a.u.
Modification = 2'F-ANA at 2 3 4 5 6 7 14; result = 53.5 a.u.
Modification = 2'F-ANA at 1 2 3 4 7 10 13 15; result = 56.7 a.u.
Modification = 2'F-ANA at 1 2 6 8 9 11 12 13 14 15; result = 77.9 a.u.
Modification = 2'F-ANA at 1 2 4 8 9 10 11 12 13 15; result = 58.4 a.u.

Block 2 — technique: protein binding microarray; form: double-stranded DNA, one strand shown; medium: in vitro; tested at: not given; relative to: not given; reading: higher = stronger binding; measurement: E-score
Target: Histone acetyltransferase KAT6A, both winged helices, GST fusion (KAT6A, Homo sapiens, UniProt Q92794, residues 1-181)
Notes: 8-mer, flanks averaged, mean of 2 arrays, mostly near background
Target sequence (chain): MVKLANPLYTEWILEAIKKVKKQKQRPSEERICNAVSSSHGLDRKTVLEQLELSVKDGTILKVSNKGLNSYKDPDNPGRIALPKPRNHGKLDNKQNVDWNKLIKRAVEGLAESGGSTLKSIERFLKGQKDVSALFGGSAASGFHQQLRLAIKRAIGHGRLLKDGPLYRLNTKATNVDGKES
Oligonucleotide = CCTACAGA; result = -0.203
Oligonucleotide = ATCCTGCA; result = -0.248
Oligonucleotide = ATGCGTCA; result = 0.0884
Oligonucleotide = GGGATTGA; result = -0.0208
Oligonucleotide = CGTTTCGC; result = 0.168
Oligonucleotide = AGCCGCAT; result = 0.161
Oligonucleotide = AACTCCGG; result = 0.13
Oligonucleotide = ACATGGAT; result = 0.00842
Oligonucleotide = TATTCTCA; result = -0.224
Oligonucleotide = ACGATAGC; result = 0.0527
Oligonucleotide = ACACATTA; result = -0.133
Oligonucleotide = GAAGAGCA; result = -0.0518
Oligonucleotide = AAGGCGTG; result = 0.104
Oligonucleotide = AGTTGAAC; result = -0.0436
Oligonucleotide = CCGTTGGA; result = 0.144
Oligonucleotide = CACGAAAG; result = -0.0339
Oligonucleotide = CCACCGCC; result = 0.134
Oligonucleotide = AGTACTAT; result = -0.0368
Oligonucleotide = AGGCTTTA; result = -0.161
Oligonucleotide = CTGCACCA; result = -0.272
Oligonucleotide = AGGTTCCA; result = -0.116
Oligonucleotide = ACGTGGTC; result = -0.181
Oligonucleotide = CGGCAGGC; result = 0.165
Oligonucleotide = GGACGGGA; result = 0.223
Oligonucleotide = CGTACCTA; result = -0.0122

Block 3 — technique: RNA Bind-n-Seq; form: RNA; medium: in vitro; tested at: 365 nM; relative to: no-protein control; reading: higher = stronger binding; measurement: RBNS enrichment (R)
Target: RNA binding protein fox-1 homolog 2, RRM domain, GST-SBP tag (RBFOX2, Homo sapiens, UniProt O43251-10, residues 100-194)
Notes: natural RNA segment, single round, ends assumed
Constant ends, left off below: GGGAGUUCUACAGUCCGACGAUC … UGGAAUUCUCGGGUGCCAA
Target sequence (chain): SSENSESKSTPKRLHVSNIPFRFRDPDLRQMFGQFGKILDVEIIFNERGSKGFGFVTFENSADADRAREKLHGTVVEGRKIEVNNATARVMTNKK
Oligonucleotide = UUGUGCUCUGCUUGGACAGCAGGCCUGGCACUGGGAGGUGGGGGUGAGCCCCUCACAGCCUUGCCCCUCCCCAAGGCUGGCAACCUGCCUCCCAUUGCCCAAGAGAGAGG; result = 0.653
Oligonucleotide = GUUUCUGGUAGCAGGCCUCCAUUGAACUGUUGUAAAAUACAAGAAGUGUGGUCAGUAAGGAGAGUUGGGGUGGUGCCUUCCAGCCUGCCCGCCAGUCCAUCCUAGACACU; result = 0.394
Oligonucleotide = AAAGCUGGGGAGGAGGAUCUACUGCUGUACAGCUAAUAAAUCAUAACGGAUUAACAAGUGCUCCAAAGACUCCAUCUUGCGUGAUUCCUGCCUGCUUGAGGGAGGCUGGG; result = 4.45
Oligonucleotide = UUGUCUAGUUUAAUCCUACCUUUAAUAGUUGUGUUUGGUAAAAUUCCCACUUGAAUGUGACACUGAUAAUAAUUAUGCUGAUUUUUAGCAUCUCUUAUAGGAAUCAAAGU; result = 3.27
Oligonucleotide = GGAGCCAUUUCUGUAGGUAACUGGACCAAGAAUGAGAAAAAUAAUGAAUUCUUAGCUCCCUGAUUACACCUGCCACCUUGGAAUCAAGGACUCACACUUCUGACCCUGCC; result = 0.558
Oligonucleotide = UUUACGACACUAACAGGACUGCAUAGAGGCUUUUUCAGCAUUACUGUAUUGUCUCCGGCCACACUGGCAAGAUCAUCAUUAGAAAUGGAAAUGACAUUUGAAAGCCAUUA; result = 0.346
Oligonucleotide = AGAACAUGUUAGCAGUCUGUCAGACCUGAGCUCUGGCAUGUGCGACAGCACGUUACUAAAGCAGUUACAUGCAUGUUGCGCUACCCUCAUCUGGUAUAGAGACCUGCAUU; result = 0.513
Oligonucleotide = ACCCCACCCAAAAGCCCCCUUUGUUACUUAGGCAAUUCCCCUUCCCUGACUCCCGAGGGCUAGGGCUAGAGCAGACCCGGGUAAGUAAAGGCAGACCCAGGGCUCCUCUA; result = 0.488
Oligonucleotide = AGGCCCAUGGCAUUGUGGUGACGGAUGUGGCCUUUCUACCUGAGAAGGGUCGUGGUCCAGAGCUCCUUGGGUCCCAUGAAACUGCCCUGUUCUCUGUGGCUGUGGACAGU; result = 0.346
Oligonucleotide = ACUUUGAGGUUAGUCUGAAUCUUGAACUUUAAUACCAAAUUAAUUUUGAAUGCUUUUGUUUCCUAAGAGAUAAUGGCAUGGUUUCAUAUGUUAUACUUUGGACAGACAGA; result = 0.457
Oligonucleotide = CAGAGCUCUGACCUCAUCAAACACCAGCGCACGCAUACAGGCGAGCGGCCCUACAAGUGUCCCAGGUGCGGCAAGGCCUUCGCUGAUAGCUCUUACCUACUCCGCCACCA; result = 0.748
Oligonucleotide = AUUGCAACCAAAAUGGGGACUUCCUGGGUAGGGAGGUCACUCCCUCUACUCACUGAGCUAGGAUUAGGGAGGGUUAUUGCCCCAACCAUUGCAAUGGGAGGUGGAGGGAC; result = 0.961

Block 4 — technique: protein-binding microarray; form: double-stranded DNA, one strand shown; medium: in vitro; tested at: 0.8 µM; notes: whole 60-bp probe, no competitor; reading: higher = stronger binding; measurement: fluorescence intensity; constant ends, left off below: … GTCTTGATTCGCTTGACGCTGCTG
Target: Centromere-binding protein 1, full length, N-terminal tag (CBF1, Saccharomyces cerevisiae, UniProt P17106, residues 1-351)
Chain of UniProt P17106 (whole entry, looked up): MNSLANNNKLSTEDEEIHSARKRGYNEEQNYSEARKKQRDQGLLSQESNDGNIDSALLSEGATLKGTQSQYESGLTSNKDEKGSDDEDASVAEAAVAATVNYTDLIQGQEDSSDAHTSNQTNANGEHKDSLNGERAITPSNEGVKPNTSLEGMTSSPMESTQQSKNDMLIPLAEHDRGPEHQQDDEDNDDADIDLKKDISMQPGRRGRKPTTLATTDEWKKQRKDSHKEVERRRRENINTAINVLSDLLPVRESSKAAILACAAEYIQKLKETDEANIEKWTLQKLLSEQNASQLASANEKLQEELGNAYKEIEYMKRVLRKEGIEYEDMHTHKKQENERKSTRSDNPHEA
Oligonucleotide = GAACAATCACGCACGCACGCAGTCGGTGCACGCTAG; result = 724 a.u.
Oligonucleotide = CCTAACTACTATATTCACACGAGATAGCTTCGTACA; result = 593 a.u.
Oligonucleotide = CTAGTGGTTTCTTTATACGTCACAAATCTGTATTTC; result = 557 a.u.
Oligonucleotide = GAAAATAAAGAGAGTCACGGGGAATATCGGGAATAG; result = 1750 a.u.
Oligonucleotide = GAATGCTGTGACTGTCACGCAACATGTCCACCATAG; result = 657 a.u.
Oligonucleotide = TGTACGAAGCTATCACGTGGCACTATAGTAGTTAGG; result = 9250 a.u.
Oligonucleotide = GAAAAAAGCAAATCACATGTGCACATACGTCCATAG; result = 4360 a.u.
Oligonucleotide = CTACACCTACTGCATCACCTACTTGTATAATCCTTC; result = 560 a.u.
Oligonucleotide = CTATTTCAACCACTTCTGATGTTTTCTTTGAACTTC; result = 537 a.u.
Oligonucleotide = CTATTGATAGCGACGGCCGTGACCATTGCAAGATTC; result = 612 a.u.
Oligonucleotide = TGTACGAAGCTATCAAACGTGTATATAGTAGTTAGG; result = 564 a.u.
Oligonucleotide = GAACTAGCTTCAGCTGATGTGCCATGTAACGCCTAG; result = 537 a.u.
Oligonucleotide = TGTACGAAGCTATGTAGTGTGACTATAGTAGTTAGG; result = 591 a.u.
Oligonucleotide = CTATTTCCTATCTTCTACCTGATGTGTGCATGATTC; result = 632 a.u.
Oligonucleotide = CTATTTGTTTAAAATTTCACCAGATCTGCTTGATTC; result = 491 a.u.
Oligonucleotide = GAACCACTCATAAATCACGACGCTACGTAGTTCTAG; result = 608 a.u.
Oligonucleotide = CTACGCTTAGGCATAATGGTGGTGCATTCTTTTTTC; result = 524 a.u.
Oligonucleotide = CTAGTTTAGTAGAACCTCGTGAAACTTACATTTTTC; result = 564 a.u.
Oligonucleotide = GAATAACAAGAGGCGCACATGCCTTTTGACTCATAG; result = 559 a.u.
Oligonucleotide = GAAAGCTCCCACGTGCATATCACGTGCATTATATAG; result = 25800 a.u.
Oligonucleotide = GAAAGCAAGCCACGCCATGTGATTAACCTTGCTTAG; result = 1790 a.u.
Oligonucleotide = GAAGAGAAAAAGTTGCGTGCGTCACTGCCCACGTAG; result = 542 a.u.
Oligonucleotide = GAAGAGAACTACCCTGACGTCATCAGCGAAATTTAG; result = 491 a.u.
Oligonucleotide = GAAGAGAAAATCTTCAACATCAGGGCTATGTCATAG; result = 534 a.u.
Oligonucleotide = CTATGCATTATACAGAACGTGCTGAAAATGTAGTTC; result = 989 a.u.

A few entries again (block 2):
Oligonucleotide = AGTTGAAC; result = -0.0436
Oligonucleotide = CCGTTGGA; result = 0.144
Oligonucleotide = CACGAAAG; result = -0.0339
Oligonucleotide = CCACCGCC; result = 0.134
Oligonucleotide = AGTACTAT; result = -0.0368
Oligonucleotide = AGGCTTTA; result = -0.161
Oligonucleotide = CTGCACCA; result = -0.272
Oligonucleotide = AGGTTCCA; result = -0.116
Oligonucleotide = ACGTGGTC; result = -0.181
Oligonucleotide = CGGCAGGC; result = 0.165
Oligonucleotide = GGACGGGA; result = 0.223
